Values quoted from earlier work as cited in several papers.
Chain of UniProt Q15303 (whole entry, looked up): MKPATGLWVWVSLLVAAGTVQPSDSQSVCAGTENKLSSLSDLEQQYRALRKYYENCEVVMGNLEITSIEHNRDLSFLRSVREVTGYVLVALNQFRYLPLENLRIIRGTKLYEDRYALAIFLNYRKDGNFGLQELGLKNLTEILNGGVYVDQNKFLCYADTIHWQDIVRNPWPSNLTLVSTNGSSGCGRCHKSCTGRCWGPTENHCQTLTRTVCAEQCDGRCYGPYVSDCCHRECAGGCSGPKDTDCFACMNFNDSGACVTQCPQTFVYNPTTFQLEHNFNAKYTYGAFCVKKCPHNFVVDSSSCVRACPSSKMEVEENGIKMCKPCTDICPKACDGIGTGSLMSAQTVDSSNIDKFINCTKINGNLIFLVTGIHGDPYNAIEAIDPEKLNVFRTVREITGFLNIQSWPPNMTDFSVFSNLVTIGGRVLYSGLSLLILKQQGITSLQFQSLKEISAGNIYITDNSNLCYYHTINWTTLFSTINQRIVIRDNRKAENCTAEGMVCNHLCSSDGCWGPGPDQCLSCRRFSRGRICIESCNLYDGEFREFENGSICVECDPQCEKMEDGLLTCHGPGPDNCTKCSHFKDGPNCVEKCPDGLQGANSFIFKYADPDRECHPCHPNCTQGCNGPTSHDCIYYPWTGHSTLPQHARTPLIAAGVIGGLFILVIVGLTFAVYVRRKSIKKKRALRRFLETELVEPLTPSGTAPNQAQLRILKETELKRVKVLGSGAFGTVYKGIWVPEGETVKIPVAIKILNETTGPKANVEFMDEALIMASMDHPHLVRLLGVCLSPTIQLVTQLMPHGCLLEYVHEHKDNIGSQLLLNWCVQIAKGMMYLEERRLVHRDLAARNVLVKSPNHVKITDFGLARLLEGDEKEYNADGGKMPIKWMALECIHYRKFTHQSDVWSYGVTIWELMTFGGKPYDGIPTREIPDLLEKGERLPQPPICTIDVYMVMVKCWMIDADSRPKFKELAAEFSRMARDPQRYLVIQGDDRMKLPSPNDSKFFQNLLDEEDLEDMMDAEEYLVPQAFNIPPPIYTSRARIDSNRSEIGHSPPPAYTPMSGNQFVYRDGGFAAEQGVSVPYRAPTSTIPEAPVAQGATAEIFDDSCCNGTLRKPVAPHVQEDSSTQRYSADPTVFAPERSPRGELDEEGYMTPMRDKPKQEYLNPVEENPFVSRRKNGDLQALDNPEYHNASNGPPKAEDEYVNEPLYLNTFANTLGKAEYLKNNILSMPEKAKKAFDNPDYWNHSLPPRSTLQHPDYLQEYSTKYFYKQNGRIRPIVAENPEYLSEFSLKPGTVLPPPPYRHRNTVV

CC(C)(C)c1cc(C(C)(C)C)c(NC(=O)c2c[nH]c3ccccc3c2=O)cc1O — gut wall elimination, fraction escaping (human): 0.5
N#Cc1ccc(C(c2ccc(C#N)cc2)n2cncn2)cc1 — fraction unbound (human, plasma; estimated): 0.6
CC(C)(CO)c1cc2cc(NC(=O)C3(c4ccc5c(c4)OC(F)(F)O5)CC3)c(F)cc2n1C[C@@H](O)CO — fraction unbound (human, plasma): 0.009
C=CC[C@@H]1/C=C(\C)C[C@H](C)C[C@H](OC)[C@H]2O[C@@](O)(C(=O)C(=O)N3CCCC[C@H]3C(=O)O[C@H](/C(C)=C/[C@@H]3CC[C@@H](O)[C@H](OC)C3)[C@H](C)[C@@H](O)CC1=O)[C@H](C)C[C@@H]2OC — fraction metabolized (item: CYP3A5; human): 0.67
C[C@@H](Oc1ccc(S(C)(=O)=O)cc1C(=O)N1C[C@@H]2C[C@]2(c2cc(C(F)(F)F)on2)C1)C(F)(F)F — fraction metabolised by CYP3A4 (human, liver): ≥ 90%
C[C@H](N[C@@H](CCc1ccccc1)C(=O)O)C(=O)N1CCC[C@H]1C(=O)O — fraction absorbed (human): 18%
Nc1cc(C(F)(F)F)c(-c2nc(N3CCOCC3)nc(N3CCOCC3)n2)cn1 — remaining activity (ERBB4 (Homo sapiens, UniProt Q15303); enzyme activity; 10 µM; relative to: untreated): 79%
CN(C)CCc1c[nH]c2ccc(C[C@H]3COC(=O)N3)cc12 — fraction absorbed (human): 50%
C[C@@H]1[C@H](O)[C@@H](C)/C=C/C=C/C=C/C=C/C=C/C=C/C=C/[C@H](O[C@@H]2O[C@H](C)[C@@H](O)[C@H](N)[C@@H]2O)C[C@@H]2O[C@](O)(C[C@@H](O)C[C@@H](O)[C@H](O)CC[C@@H](O)C[C@@H](O)CC(=O)O[C@H]1C)C[C@H](O)[C@H]2C(=O)O — fraction excreted in faeces (human): 43%
Cc1nn(C)cc1S(=O)(=O)NC(=O)c1ccc(-n2ccc(OCC(C)(C)C(F)(F)F)n2)nc1N1C[C@@H](C)CC1(C)C — fraction absorbed (human): 0.82
COc1ccccc1OCCNCC(O)COc1cccc2[nH]c3ccccc3c12 (centres unmarked) — fraction absorbed (human): 80%

Excerpt of the above:
CN(C)CCc1c[nH]c2ccc(C[C@H]3COC(=O)N3)cc12 — fraction absorbed (human): 50%
Nc1cc(C(F)(F)F)c(-c2nc(N3CCOCC3)nc(N3CCOCC3)n2)cn1 — remaining activity (ERBB4 (Homo sapiens, UniProt Q15303); enzyme activity; 10 µM; relative to: untreated): 79%
